Measured values gathered from unrelated publications.
Compare with care: the assays were run in different laboratories. “And” joins repeats or separate records; there may be more than shown. ± marks the error that the study gave.
CARM1: Histone-arginine methyltransferase CARM1 (CARM1, Homo sapiens, UniProt Q86X55)
Chain of UniProt Q86X55 (whole entry, looked up): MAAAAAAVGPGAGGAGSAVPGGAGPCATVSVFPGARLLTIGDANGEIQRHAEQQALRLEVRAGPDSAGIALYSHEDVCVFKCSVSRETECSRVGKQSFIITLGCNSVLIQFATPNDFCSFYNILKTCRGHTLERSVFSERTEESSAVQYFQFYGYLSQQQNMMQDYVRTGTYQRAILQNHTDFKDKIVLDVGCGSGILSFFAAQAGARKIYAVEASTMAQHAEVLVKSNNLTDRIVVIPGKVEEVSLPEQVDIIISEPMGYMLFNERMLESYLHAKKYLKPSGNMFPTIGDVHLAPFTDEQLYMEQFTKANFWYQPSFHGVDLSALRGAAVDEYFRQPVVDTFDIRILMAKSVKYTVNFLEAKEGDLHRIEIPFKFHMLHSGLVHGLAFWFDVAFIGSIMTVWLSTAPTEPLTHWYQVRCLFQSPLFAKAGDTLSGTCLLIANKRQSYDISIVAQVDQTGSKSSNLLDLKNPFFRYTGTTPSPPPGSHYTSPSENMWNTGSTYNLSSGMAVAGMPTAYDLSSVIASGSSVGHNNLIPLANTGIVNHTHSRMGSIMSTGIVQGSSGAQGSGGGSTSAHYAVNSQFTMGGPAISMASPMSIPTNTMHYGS
CELA1: Chymotrypsin-like elastase family member 1 (CELA1, Sus scrofa, UniProt P00772)
Chain of UniProt P00772 (whole entry, looked up): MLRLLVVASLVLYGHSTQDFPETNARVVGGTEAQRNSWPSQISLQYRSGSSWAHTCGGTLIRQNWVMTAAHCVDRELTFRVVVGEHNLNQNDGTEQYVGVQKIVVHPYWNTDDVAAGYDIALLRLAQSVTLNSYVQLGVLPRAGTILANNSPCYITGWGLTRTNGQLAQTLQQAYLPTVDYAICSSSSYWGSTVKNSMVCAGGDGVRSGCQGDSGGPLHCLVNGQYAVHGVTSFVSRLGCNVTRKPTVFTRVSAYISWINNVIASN
DPP9: Dipeptidyl peptidase 9 (DPP9, Homo sapiens, UniProt Q86TI2)
Chain of UniProt Q86TI2 (whole entry, looked up): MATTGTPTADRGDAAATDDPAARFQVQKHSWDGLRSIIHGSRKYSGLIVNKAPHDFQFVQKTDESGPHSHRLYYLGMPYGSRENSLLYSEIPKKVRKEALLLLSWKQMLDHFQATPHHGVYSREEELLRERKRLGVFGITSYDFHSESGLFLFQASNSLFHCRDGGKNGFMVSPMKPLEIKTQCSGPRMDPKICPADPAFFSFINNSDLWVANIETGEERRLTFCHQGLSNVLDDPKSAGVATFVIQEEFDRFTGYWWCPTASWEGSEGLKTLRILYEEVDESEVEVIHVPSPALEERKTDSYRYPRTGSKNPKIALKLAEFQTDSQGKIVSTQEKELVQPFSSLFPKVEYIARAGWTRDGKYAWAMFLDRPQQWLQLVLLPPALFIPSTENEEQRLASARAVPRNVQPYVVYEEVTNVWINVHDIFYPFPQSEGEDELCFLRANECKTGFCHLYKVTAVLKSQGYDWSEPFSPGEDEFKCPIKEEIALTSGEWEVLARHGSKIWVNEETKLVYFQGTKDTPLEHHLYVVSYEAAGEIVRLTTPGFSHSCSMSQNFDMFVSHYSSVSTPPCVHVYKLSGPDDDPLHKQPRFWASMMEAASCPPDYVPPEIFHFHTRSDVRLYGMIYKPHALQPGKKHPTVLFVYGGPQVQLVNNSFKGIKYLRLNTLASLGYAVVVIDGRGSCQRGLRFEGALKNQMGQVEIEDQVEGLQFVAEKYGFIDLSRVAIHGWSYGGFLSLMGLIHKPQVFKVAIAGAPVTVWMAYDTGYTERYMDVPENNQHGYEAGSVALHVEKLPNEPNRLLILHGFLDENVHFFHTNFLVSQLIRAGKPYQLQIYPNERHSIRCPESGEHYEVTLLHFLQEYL
Chain of UniProt P35030 (whole entry, unmodified, looked up): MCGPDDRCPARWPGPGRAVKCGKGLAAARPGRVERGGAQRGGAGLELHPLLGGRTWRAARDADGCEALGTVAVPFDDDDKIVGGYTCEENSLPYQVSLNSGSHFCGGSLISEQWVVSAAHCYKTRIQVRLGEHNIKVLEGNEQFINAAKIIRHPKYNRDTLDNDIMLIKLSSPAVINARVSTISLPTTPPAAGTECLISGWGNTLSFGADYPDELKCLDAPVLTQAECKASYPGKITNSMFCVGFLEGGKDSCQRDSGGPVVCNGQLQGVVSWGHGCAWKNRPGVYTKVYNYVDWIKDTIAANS
Chain of UniProt A5K302 (whole entry, looked up): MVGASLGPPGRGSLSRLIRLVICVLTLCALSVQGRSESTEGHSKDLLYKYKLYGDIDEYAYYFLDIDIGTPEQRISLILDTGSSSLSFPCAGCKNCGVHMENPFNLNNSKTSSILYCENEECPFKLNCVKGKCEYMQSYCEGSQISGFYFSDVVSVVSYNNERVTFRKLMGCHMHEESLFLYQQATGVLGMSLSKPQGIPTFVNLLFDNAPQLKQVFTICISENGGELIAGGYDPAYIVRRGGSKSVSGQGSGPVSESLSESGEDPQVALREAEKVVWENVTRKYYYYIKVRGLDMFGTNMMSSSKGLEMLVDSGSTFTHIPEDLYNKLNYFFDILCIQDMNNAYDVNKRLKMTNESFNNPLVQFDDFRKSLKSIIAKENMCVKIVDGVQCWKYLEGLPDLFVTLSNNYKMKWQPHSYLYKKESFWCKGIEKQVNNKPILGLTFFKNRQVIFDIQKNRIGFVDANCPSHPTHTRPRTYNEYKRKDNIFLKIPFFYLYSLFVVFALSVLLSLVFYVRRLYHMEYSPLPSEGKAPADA
Chain of UniProt P18031 (whole entry, looked up): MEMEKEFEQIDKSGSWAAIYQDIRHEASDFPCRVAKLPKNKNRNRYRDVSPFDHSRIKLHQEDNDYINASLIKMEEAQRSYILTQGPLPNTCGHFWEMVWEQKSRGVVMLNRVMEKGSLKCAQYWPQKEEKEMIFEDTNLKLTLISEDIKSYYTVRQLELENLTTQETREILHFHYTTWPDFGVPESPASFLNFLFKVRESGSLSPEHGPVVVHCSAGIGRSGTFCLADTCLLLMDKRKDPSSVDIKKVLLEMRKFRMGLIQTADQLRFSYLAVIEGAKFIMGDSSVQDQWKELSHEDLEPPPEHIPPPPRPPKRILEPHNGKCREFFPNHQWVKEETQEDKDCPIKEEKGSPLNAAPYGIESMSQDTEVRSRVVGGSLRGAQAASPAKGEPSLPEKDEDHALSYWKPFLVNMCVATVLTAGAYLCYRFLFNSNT
Chain of UniProt P23975 (whole entry, looked up): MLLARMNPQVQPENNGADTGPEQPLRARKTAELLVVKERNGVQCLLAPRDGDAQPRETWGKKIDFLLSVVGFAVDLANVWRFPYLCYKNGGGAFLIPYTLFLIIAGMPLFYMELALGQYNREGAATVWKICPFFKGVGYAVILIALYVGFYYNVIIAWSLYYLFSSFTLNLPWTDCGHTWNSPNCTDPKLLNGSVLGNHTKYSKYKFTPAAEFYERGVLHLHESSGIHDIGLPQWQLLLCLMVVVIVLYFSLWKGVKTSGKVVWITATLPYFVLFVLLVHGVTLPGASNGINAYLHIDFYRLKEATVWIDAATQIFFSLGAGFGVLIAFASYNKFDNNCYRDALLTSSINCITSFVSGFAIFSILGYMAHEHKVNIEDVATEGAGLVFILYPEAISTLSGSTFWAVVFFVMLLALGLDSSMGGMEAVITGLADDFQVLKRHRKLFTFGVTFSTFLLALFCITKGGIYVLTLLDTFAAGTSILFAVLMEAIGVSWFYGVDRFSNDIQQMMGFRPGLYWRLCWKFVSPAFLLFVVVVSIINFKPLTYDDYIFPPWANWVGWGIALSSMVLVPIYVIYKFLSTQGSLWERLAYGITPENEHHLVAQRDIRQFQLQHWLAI
Chain of UniProt Q02248 (whole entry, looked up): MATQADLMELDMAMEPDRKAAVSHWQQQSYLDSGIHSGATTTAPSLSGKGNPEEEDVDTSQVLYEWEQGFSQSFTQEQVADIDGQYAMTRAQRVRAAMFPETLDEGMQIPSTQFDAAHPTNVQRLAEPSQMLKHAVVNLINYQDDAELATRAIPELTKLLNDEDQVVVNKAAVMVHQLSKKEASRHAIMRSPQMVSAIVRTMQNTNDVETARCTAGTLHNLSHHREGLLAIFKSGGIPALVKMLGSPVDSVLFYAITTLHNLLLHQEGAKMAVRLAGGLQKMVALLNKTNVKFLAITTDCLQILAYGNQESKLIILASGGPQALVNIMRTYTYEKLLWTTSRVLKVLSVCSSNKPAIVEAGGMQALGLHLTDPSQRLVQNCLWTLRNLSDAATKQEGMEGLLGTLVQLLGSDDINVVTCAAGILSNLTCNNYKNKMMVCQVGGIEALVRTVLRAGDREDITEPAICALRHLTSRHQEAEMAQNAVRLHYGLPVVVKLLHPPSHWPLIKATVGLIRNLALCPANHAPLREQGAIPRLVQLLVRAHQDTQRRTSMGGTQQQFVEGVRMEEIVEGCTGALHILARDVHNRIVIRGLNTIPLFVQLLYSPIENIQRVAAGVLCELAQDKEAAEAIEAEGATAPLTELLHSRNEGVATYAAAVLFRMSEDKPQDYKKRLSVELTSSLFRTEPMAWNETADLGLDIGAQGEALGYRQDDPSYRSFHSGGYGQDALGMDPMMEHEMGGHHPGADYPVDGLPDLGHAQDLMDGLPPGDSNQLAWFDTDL
Chain of UniProt P11086 (whole entry, looked up): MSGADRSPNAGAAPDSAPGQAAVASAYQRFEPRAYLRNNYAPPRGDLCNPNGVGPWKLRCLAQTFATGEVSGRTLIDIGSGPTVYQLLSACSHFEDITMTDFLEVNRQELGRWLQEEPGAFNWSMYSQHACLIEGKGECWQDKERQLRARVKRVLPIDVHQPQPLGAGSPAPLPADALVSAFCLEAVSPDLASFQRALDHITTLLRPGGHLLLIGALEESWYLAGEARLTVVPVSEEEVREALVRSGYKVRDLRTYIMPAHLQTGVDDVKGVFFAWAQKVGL

Structure (SMILES)	target or system	assay	test system	conditions	scale	measurement	result
CSc1ccc2c(c1)C(N1CCN(C)CC1)Cc1ccccc1S2 (centres unmarked)	5-hydroxytryptamine receptor 1E (HTR1E, Homo sapiens, UniProt P28566)	binding	–	–	–	Ki	0.053 µM
CC(=O)N[C@@H](CCCCN)C(=O)N[C@@H](C)C(=O)N1CCC[C@H]1C(=O)N[C@@H](CCCNC(=N)NCCC[C@H]1O[C@@H](n2cnc3c(N)ncnc32)[C@H](O)[C@@H]1O)C(=O)N[C@@H](CCCCN)C(=O)N[C@@H](CCC(N)=O)C(=O)N[C@@H](CC(C)C)C(=O)N[C@@H](C)C(N)=O (relative stereo)	CARM1	enzyme activity, inhibitor	–	–	–	Ki	0.137 µM
OB(O)c1ccc(OCc2ccccc2)nc1F	CELA1	enzyme activity, inhibitor, absorbance	–	–	–	Ki	248 µM
CCOC(=O)C12CC1C(n1cnc3c(NC)nc(C#Cc4ccc(Br)s4)nc31)C(O)C2O (centres unmarked)	Sodium-dependent noradrenaline transporter (SLC6A2, Homo sapiens, UniProt P23975)	ligand displacement, radioligand	–	–	–	Ki	2.9 µM
COC1CN([C@H]2CC[C@H]([C@@]3(C)Oc4c(Cl)cc(C(=O)NCc5c(SC)cc(C)[nH]c5=O)c(C)c4O3)CC2)C1	–	RNA-seq, item: ERRFI1 mouse homolog	mouse, HT-1376 xenograft, whole blood	dose not given	reference: vehicle	log2 fold change	0.171
CC(=O)N[C@@H](C)C(=O)N1CCC[C@H]1C(=O)N[C@@H](CCCNC(=N)NCCC[C@H]1O[C@@H](n2cnc3c(N)ncnc32)[C@H](O)[C@@H]1O)C(=O)N[C@@H](CCCCN)C(=O)N[C@@H](CCC(N)=O)C(=O)N[C@@H](CC(C)C)C(N)=O (relative stereo)	CARM1	enzyme activity, inhibitor	–	–	–	Ki	0.036 µM
CCC1(CC)C(=O)N(c2cc(C(=O)OC)cc(C(=O)N3CCN(Cc4ccc(Br)cc4)CC3)c2)C1=O	DPP9	enzyme activity, inhibitor, fluorescence	–	–	–	Ki	0.148 µM
Cc1ncsc1-c1ccc(C(C)NC(=O)C2CC(O)CN2C(=O)C(NC(=O)CCCCCCCCCCN2CCCC(Nc3ncc(Cl)c(Nc4ccccc4S(=O)(=O)C(C)C)n3)C2)C(C)(C)C)cc1 (centres unmarked)	22Rv1	RNA-seq, item: TNFRSF19 mRNA	–	concentration not given	reference: DMSO	log2 fold change	-1.41
COC(=O)[C@@]1(C(C)C)C=C(C(=O)Nc2cccc(C(=O)Nc3ccc(Nc4nccc(-c5cccnc5)n4)c(C)c3)c2)C(=O)CC1	Mitogen-activated protein kinase 8 (MAPK8, Homo sapiens, UniProt P45983)	SPR two-step binding model	–	wild-type protein surface	–	Ki	0.0071 µM
CCC1(CC)C(=O)N(c2cccc(CN3CCN(Cc4ccc(Br)c5ccccc45)CC3)c2)C1=O	DPP9	enzyme activity, inhibitor, fluorescence	–	–	–	Ki	> 2 µM
OB(O)c1cnn(-c2cc(Cl)ncn2)c1	CELA1	enzyme activity, inhibitor, absorbance	–	–	–	Ki	2880 µM
CSCCCC/C(=N/OS(=O)(=O)O)S[C@@H]1O[C@H](CO)[C@@H](O)[C@H](O)[C@H]1O	Tyrosine-protein phosphatase non-receptor type 1 (PTPN1, Homo sapiens, UniProt P18031)	enzyme activity, inhibitor	–	–	–	Ki	6.29 µM
CC(C)[C@@H]1NC(=O)[C@H](Cc2ccccc2)NC(=O)[C@H](Cc2ccc(O)cc2)NC(=O)CCSSC[C@@H](C(=O)N2CCC[C@H]2C(=O)N[C@H](CCCNC(=N)N)C(=O)NCC(N)=O)NC(=O)[C@H](CC(N)=O)NC1=O	Vasopressin V2 receptor (AVPR2, Homo sapiens, UniProt P30518)	ligand displacement, radioligand	–	cell membranes	–	Ki	0.0018 µM
Cc1nc(-c2c[nH]c(C(=O)Nc3ncccc3O)c2)cs1	Trypsin-3 (Homo sapiens, UniProt P35030, W279Q)	enzyme activity, inhibitor, mixed model kinetics	–	–	–	Ki	245 µM and 233 µM
CCC1(CC)CC(=O)N(C2c3cc(C(=O)NC4c5ccccc5CC4O)ccc3OC2(C)COC)C(=N)N1 (centres unmarked)	Plasmepsin V (PMV, Plasmodium vivax, UniProt A5K302)	peptide cleavage, inhibitor	–	–	–	Ki	23.1 ± 6.83 µM
Nc1ncnc2c1ncn2C1OC(CN(CCCC2CNCc3c2ccc(Cl)c3Cl)CCC(N)C(=O)O)C(O)C1O (mixture of isomers)	Phenylethanolamine N-methyltransferase (PNMT, Homo sapiens, UniProt P11086)	enzyme activity, inhibitor, coupled-enzyme	–	–	–	Ki	0.012 ± 0.001 µM
C=CC(=O)Nc1cccc(Cn2ncc3cnc(Nc4cnn(CCOC)c4)nc32)c1	GSK3A human	binding, KINOMEscan	–	100 nM	lower = stronger binding	percent of control	100%
CCC1(CC)C(=O)N(c2cccc(CCC(=O)O)c2)C1=O	DPP9	enzyme activity, inhibitor, fluorescence	–	–	–	Ki	0.345 µM
O=C(/C=C/c1ccc(O)cc1)OC(CO)C(=O)O (centres unmarked)	Catenin beta-1, armadillo repeat domain (Mus musculus, UniProt Q02248)	binding to HD2, inhibitor, ELISA	–	with: His-HD2 with GST-ARD	–	Ki	6.3 ± 2.7 µM
O=C1N(c2cccc(CN3CCN(Cc4ccc(Br)cc4)CC3)c2)C(=O)C12CCCCC2	DPP9	enzyme activity, inhibitor, fluorescence	–	–	–	Ki	0.044 µM
C=C(NC(=O)c1csc(-c2nc3c(cc2O)-c2nc(cs2)C(=O)NC(C(C)O)C(=O)NC(=C(C)OC)c2nc(cs2)C(=O)NC2c4nc(cs4)C(=O)NC(COC(=O)c4c5c6c(cccc6n4O)COC(=O)C(OC4CC(C)(O)C(N(C)C)C(C)O4)C2OC5)c2nc-3cs2)n1)C(N)=O (centres unmarked)	–	–	ICR mice, Streptococcus pneumoniae ATCC 49169 infected, immunocompromised, blood	intravenous, 4 mg/kg/day twice daily	–	AUC(0-t)	224 ng·h/mL
CC(=O)N[C@@H](CC(C)C)C(=O)N[C@@H](CC(C)C)C(=O)N[C@@H](CC(C)C)C(=O)N[C@@H](CC(C)C)C(=O)N[C@@H](CCCNC(=N)N)C(=O)N[C@H](C(=O)N[C@@H](CCCCN)C(=O)N[C@@H](CCCNC(=N)N)C(N)=O)C(C)C	Neuroendocrine convertase 2 (Homo sapiens, UniProt P16519)	enzyme activity, inhibitor	–	–	–	Ki	0.59 µM
Cn1ccc2c(N3CCN(CCCCOc4ccc5c(c4)NC(=O)CC5)CC3)cccc21	5-hydroxytryptamine receptor 1B (HTR1B, Homo sapiens, UniProt P28222)	ligand displacement, radioligand	–	–	–	Ki	0.23 µM

Some of these lines once more:
Structure (SMILES)	target or system	assay	test system	conditions	scale	measurement	result
CC(=O)N[C@@H](CCCCN)C(=O)N[C@@H](C)C(=O)N1CCC[C@H]1C(=O)N[C@@H](CCCNC(=N)NCCC[C@H]1O[C@@H](n2cnc3c(N)ncnc32)[C@H](O)[C@@H]1O)C(=O)N[C@@H](CCCCN)C(=O)N[C@@H](CCC(N)=O)C(=O)N[C@@H](CC(C)C)C(=O)N[C@@H](C)C(N)=O (relative stereo)	CARM1	enzyme activity, inhibitor	–	–	–	Ki	0.137 µM
CCC1(CC)CC(=O)N(C2c3cc(C(=O)NC4c5ccccc5CC4O)ccc3OC2(C)COC)C(=N)N1 (centres unmarked)	Plasmepsin V (PMV, Plasmodium vivax, UniProt A5K302)	peptide cleavage, inhibitor	–	–	–	Ki	23.1 ± 6.83 µM
